Measured values from different studies.
A part holds a random share of what one study measured.

Block 1 — method: protein-binding microarray; molecule type: double-stranded DNA, one strand shown; matrix: in vitro; tested at: 940 nM top; notes: 60-bp whole probe; together with: salmon DNA 0.4 mg/ml; relative to: random background probes; reading: higher = stronger binding
Target: Interferon regulatory factor 5, full length, phosphomimetic (IRF5, Homo sapiens, UniProt Q13568-2, residues 1-514, S451D/S453D/S456D/S462D)
Strand | fitted relative affinity [z-score]
GCCTAGCACGACGATATCGGGTATCGCGACGTGCTAGTCTTGATTCGCTTGACGCTGCTG | -0.147
GCCTAGCACGACGGTTTCGACTATCTGGACGTGCTAGTCTTGATTCGCTTGACGCTGCTG | 7.78
GCCTAGCACGACGGTATCGCCTATCGGGACGTGCTAGTCTTGATTCGCTTGACGCTGCTG | 3.29

Block 2 — method: universal PBM; molecule type: double-stranded DNA, one strand shown; matrix: in vitro; tested at: 600 nM; reading: higher = stronger binding
Target: Sal-like protein 4, full length isoform A (SALL4, Homo sapiens, UniProt Q9UJQ4, residues 1-1053)
Chain of UniProt Q9UJQ4 (whole entry, looked up): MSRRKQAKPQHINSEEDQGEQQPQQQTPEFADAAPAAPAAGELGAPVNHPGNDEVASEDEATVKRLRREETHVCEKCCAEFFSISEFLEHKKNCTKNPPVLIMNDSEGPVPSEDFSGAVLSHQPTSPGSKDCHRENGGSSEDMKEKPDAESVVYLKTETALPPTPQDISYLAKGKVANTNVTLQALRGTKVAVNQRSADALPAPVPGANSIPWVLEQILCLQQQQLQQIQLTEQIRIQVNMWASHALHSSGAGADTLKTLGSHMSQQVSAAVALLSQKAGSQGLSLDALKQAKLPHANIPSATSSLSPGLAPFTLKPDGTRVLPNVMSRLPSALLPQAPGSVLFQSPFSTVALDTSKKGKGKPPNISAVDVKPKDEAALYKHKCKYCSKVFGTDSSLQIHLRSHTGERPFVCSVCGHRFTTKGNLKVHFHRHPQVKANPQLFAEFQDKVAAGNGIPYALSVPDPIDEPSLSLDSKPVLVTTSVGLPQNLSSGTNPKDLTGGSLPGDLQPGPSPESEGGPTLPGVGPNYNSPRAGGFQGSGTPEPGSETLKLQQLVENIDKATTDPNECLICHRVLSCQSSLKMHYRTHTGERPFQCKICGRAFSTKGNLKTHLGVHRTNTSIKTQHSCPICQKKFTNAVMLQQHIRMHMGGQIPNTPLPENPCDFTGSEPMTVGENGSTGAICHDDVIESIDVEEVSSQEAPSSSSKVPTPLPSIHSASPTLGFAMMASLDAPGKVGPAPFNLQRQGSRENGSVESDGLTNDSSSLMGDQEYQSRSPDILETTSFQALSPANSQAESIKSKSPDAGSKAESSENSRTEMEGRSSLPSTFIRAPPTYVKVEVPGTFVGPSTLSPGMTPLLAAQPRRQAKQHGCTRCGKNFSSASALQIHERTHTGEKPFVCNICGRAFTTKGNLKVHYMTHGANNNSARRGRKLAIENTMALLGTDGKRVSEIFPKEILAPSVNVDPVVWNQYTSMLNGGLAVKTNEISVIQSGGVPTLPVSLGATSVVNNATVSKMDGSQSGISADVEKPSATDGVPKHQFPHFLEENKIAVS
Notes: 8-mer, flanks averaged, mean of replicates
Strand | E-score
AAGGCTGG | -0.216
ACCTCCCC | -0.265
AGGGTATA | 0.249

Block 3 — method: competition protein-binding microarray; molecule type: double-stranded DNA, one strand shown; matrix: in vitro; tested at: 2 µM; together with: Pho4 competitor, 0.05 µM; reading: higher = stronger binding
Target: Centromere-binding protein 1, full length, His-tagged (CBF1, Saccharomyces cerevisiae, UniProt P17106, residues 1-351)
Chain of UniProt P17106 (whole entry, looked up): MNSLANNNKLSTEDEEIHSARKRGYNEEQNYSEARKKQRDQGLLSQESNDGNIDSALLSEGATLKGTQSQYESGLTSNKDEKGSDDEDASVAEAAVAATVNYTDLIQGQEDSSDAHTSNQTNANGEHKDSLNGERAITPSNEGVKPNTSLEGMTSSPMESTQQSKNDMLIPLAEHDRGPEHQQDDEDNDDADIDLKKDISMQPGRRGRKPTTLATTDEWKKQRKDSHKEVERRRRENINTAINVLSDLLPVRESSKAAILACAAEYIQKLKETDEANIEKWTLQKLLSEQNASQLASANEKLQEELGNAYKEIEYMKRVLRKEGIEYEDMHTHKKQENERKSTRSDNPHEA
Notes: whole 60-bp probe, lowest competitor level
Strand | fluorescence intensity
AAGGGCCAATTCGGCCATGTGTGAGTAAGATCGCAAGTCTTGATTCGCTTGACGCTGCTG | 86.8 a.u.
CCTTTACTTAATACACAGGGGCAAGCCAATGTTCAAGTCTTGATTCGCTTGACGCTGCTG | 79.2 a.u.
TATTCAGCCAGTTTGTATATATGAGAATTAAACGTTGTCTTGATTCGCTTGACGCTGCTG | 81.5 a.u.

Other studies, line by line
Molecule | target | test | system | conditions | how to read | endpoint | value
PhoQ, residues 284 288 289 292 302 303 MLMVEA | PhoP, residues 12 14 15 18 19 NFCKL (Escherichia coli, UniProt P23836) | Sort-seq, item: YFP reporter | E. coli | PhoQ-PhoP variant library, together with: 10 µM Mg2+ | relative to: high Mg2+ state, higher = stronger signaling | fold induction | 17.6

Some of these lines once more (block 1):
Strand | fitted relative affinity [z-score]
GCCTAGCACGACGGTATCGCCTATCGGGACGTGCTAGTCTTGATTCGCTTGACGCTGCTG | 3.29
